Measurements collected from several papers.
Protocols differ between the studies behind these lines. Numbers after ± are the reported error. ≈ marks a conversion by molar mass, not a printed value.
Chain of UniProt P52564 (whole entry, looked up): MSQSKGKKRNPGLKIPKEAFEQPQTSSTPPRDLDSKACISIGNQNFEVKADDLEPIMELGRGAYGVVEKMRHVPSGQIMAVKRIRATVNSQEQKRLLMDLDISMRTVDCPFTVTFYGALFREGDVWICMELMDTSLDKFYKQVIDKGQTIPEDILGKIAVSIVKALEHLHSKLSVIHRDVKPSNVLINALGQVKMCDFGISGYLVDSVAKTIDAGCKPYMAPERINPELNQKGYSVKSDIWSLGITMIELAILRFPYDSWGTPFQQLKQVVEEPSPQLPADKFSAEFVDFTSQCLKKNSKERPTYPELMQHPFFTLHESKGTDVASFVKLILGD
Chain of UniProt Q16584 (whole entry, looked up): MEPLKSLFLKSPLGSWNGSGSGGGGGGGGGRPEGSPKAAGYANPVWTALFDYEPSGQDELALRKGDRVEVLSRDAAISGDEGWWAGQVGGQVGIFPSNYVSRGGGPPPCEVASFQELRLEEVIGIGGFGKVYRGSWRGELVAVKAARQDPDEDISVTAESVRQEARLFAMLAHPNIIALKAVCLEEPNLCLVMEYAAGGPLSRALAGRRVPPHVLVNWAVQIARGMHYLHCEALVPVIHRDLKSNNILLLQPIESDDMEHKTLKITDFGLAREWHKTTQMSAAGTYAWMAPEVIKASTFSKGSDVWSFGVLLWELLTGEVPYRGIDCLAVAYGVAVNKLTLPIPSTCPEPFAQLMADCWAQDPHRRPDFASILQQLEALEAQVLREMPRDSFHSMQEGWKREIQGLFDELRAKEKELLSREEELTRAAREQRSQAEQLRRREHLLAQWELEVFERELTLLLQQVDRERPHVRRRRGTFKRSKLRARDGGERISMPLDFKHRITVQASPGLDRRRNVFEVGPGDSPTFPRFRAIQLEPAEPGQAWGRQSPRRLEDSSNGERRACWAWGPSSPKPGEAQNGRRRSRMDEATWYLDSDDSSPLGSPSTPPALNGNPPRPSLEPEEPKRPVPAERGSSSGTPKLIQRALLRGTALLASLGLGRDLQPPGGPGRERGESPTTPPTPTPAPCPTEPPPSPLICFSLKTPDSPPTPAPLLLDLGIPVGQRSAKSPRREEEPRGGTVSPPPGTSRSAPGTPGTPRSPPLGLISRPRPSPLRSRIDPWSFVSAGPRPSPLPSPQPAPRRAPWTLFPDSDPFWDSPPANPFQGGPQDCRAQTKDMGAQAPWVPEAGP
Chain of UniProt P05181 (whole entry, looked up): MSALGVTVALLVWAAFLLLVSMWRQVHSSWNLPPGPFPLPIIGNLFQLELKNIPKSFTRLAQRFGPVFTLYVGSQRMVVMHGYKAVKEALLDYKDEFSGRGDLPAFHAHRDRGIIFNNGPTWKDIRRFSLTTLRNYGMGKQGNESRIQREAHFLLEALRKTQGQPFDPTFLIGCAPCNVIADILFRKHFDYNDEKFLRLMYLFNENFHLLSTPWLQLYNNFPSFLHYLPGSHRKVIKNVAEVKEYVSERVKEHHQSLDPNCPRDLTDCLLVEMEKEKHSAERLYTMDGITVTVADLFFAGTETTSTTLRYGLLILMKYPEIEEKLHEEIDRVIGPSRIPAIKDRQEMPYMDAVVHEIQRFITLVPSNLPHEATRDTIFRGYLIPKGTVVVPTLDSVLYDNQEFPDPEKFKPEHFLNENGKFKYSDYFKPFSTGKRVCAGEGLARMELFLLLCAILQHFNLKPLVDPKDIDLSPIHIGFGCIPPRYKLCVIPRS
Chain of UniProt Q96FL8 (whole entry, looked up): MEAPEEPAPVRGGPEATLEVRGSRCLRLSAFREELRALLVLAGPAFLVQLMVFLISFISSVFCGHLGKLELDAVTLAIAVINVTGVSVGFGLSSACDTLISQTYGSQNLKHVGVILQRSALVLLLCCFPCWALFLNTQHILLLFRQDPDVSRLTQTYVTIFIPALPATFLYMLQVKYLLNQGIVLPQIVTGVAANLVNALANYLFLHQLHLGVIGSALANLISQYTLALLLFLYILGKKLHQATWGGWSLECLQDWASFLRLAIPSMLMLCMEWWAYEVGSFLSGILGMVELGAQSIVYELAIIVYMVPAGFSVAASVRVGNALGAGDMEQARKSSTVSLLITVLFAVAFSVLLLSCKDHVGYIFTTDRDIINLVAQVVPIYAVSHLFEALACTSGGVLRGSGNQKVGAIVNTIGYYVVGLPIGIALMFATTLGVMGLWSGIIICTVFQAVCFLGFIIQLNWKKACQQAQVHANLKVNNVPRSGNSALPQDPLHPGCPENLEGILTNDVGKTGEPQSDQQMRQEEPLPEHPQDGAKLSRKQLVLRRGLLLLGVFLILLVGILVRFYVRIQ

The half-life of Cc1cc(-c2ccc3ccccc3c2)nnc1NCCN1CCN(C)CC1 is reported as greater than 30 min (Cytochrome P450 2E1 (CYP2E1, Homo sapiens, UniProt P05181); substrate; recombinant enzyme; 1000 nM).
Cc1cc(C(=O)Nc2nc3cccc(C)c3n2[C@H]2CCCCN(C(=O)/C=C/CN(C)C)C2)ccn1 — result for “cells in sub-G0 phase”: 3.56% (Trypanosoma brucei; propidium iodide flow cytometry; bloodstream form; concentration not given, 24 h).
Cc1sc2c(c1C)C(c1ccc(Cl)cc1)=N[C@@H](CC(=O)OC(C)(C)C)c1nnc(C)n1-2 has an AUC(0-inf) of 2090 ng·h/mL (CD1 mouse, male, plasma; oral, 10 mg/kg).
For CC[C@H](C)[C@H](NC(=O)[C@H](CCCCN)NC(=O)[C@H](CCCCN)NC(=O)[C@H](Cc1ccccc1)NC(=O)[C@H](Cc1ccccc1)NC(=O)[C@H](CCCCN)NC(=O)[C@H](CCCCN)NC(=O)[C@H](Cc1ccccc1)NC(=O)[C@H](CCCNC(=N)N)NC(=O)[C@@H](N)CCCCN)C(=O)N[C@@H](CCCCN)C(=O)N[C@@H](CCCCN)C(=O)N[C@@H](CO)C(=O)N[C@H](C(=O)N[C@@H](CCCCN)C(=O)N[C@@H](CCCCN)C(=O)N[C@@H](CCCNC(=N)N)C(=O)N[C@H](C(=O)N[C@@H](CCCCN)C(=O)N[C@@H](CCCCN)C(=O)N[C@@H](CC(C)C)C(=O)N[C@@H](Cc1ccccc1)C(=O)N[C@@H](CCCCN)C(=O)N[C@@H](CCCCN)C(=O)N1CCC[C@H]1C(=O)N[C@@H](CCCNC(=N)N)C(=O)N[C@H](C(=O)N[C@H](C(=O)N1CCC[C@H]1C(=O)N[C@H](C(=O)N[C@@H](CO)C(=O)N[C@H](C(=O)N1CCC[C@H]1C(=O)N[C@@H](Cc1ccccc1)C(=O)O)[C@@H](C)CC)[C@@H](C)CC)[C@@H](C)CC)C(C)C)C(C)C)C(C)C, the MIC was 4 µg/mL (≈ 0.948 µM) (Escherichia coli; E24; after heating at 60 °C).
CN(C)[C@H]1C[C@@]23CC[C@@]4(O2)C(=CC[C@]2(C)[C@@H](c5ccc6ccncc6c5)CC[C@H]24)C=C3[C@@H](O)[C@@H]1O gave an inhibition of 6.4% (MAP2K6 (Homo sapiens, UniProt P52564); ATP probe labelling, inhibitor, KiNativ profiling; 0.1 µM).
O=C1CC[C@@]2(O)[C@H]3Cc4ccc(O)c5c4[C@@]2(CCN3CC2CCC2)[C@H]1O5: “log tautomerization constant” 0.55.
For COc1ccccc1-c1n[nH]c2nc(N[C@H]3CC[C@H](NS(=O)(=O)CC(C)C)CC3)ncc12, the relative abundance was 0.8 (bead binding, competition bead pull-down, refers to: LINJ.34.3370; Leishmania donovani extract; 10 µM; baseline: vehicle).
The log GI50 of CC(C)(C)C(=O)OCOP(=O)(OCOC(=O)C(C)(C)C)C1CCCN(O)C1=O (stereo not drawn) is reported as -6.37 log M (MOLT-4).
For Cc1nc2cccc(OCC(C)(C)C(=O)NC(C)C)c2c(N)c1C(=O)[O-].[Na+], the revertant colonies was 31 ± 1 colonies/plate (Escherichia coli; reverse mutation, plate incorporation; WP2 uvrA; 0.13 mg/plate, without S9).
With COc1ccc(-n2cc(C(=O)N3C[C@]4(OC(=O)c5ccccc5NC(C)=O)CC[C@H](OC)[C@@]56[C@@H]4C[C@@H]([C@@H]35)[C@@]3(O)C[C@H](OC)[C@H]4C[C@@H]6[C@]3(O)[C@H]4OC)nn2)cc1 the concentration was 52.7 ng/mL (Sprague-Dawley rat, plasma; intravenous, 2 mg/kg, 10 min).
Cc1ccc(NS(=O)(=O)c2c(C(=O)N3CCCCCC3)c(C)n(C)c2C)c(Cl)c1 gave a viability of 97.4% (HaCaT; 0.046 µM, 60 h).
For CN1CC[C@]23c4c5ccc(O)c4O[C@H]2[C@H](O)C=C[C@@]3(O)[C@H]1C5, “log k protonation constant” read 9.3 (phenolate site).
The inhibition of CC(C)[C@H]1NC(=O)C[C@H]2/C=C/CCSSC[C@@H](NC1=O)C(=O)N[C@H](Cc1cccc3ccccc13)C(=O)NCC(=O)O2 is reported as 2.6% (MAP3K11 (Homo sapiens, UniProt Q16584); enzyme activity, inhibitor; 10 µM).
Under “log k amino protonation”, Oc1ccc2c3c1O[C@H]1[C@@H](O)CC[C@H]4[C@@H](C2)N(CC2CCC2)CC[C@@]341 is recorded as 9.92.
For O=C1NC2(CC2)COc2ncc(F)cc2[C@H]2COCCN2c2ccn3ncc1c3n2, the serum urea was 4.19 ± 0.49 mmol/L (Sprague-Dawley rat, male, serum; oral, 2.5 mg/kg/day, end of recovery, 4-week subacute toxicity).
CC(=O)NCCCC[C@@H]1NC(=O)[C@H](Cc2c[nH]c3c(C)cccc23)NC(=O)[C@H]([C@@H](C)O)NC(=O)[C@H](CC(N)=O)NC(=O)[C@@H](NC(C)=O)C(C)(C)SSC(C)(C)[C@@H](C(=O)N[C@@H](Cc2ccc(OCCN)cc2)C(=O)N[C@@H](Cc2ccc3ccccc3c2)C(=O)NC2(C(=O)N[C@@H](CCC(=O)O)C(=O)N[C@@H](CC(N)=O)C(=O)N[C@@H](Cc3cccnc3)C(=O)N(C)CC(N)=O)CCOCC2)NC1=O gave an uptake rate of 0.154 ± 0.004 pmol/mg/min (SLC47A1 (Homo sapiens, UniProt Q96FL8); substrate; MDCK-II overexpressing transporter; 5 µM, 30 min).
CN1CC[C@]23c4c5ccc(O)c4O[C@H]2[C@H](O)CC[C@@]3(O)[C@H]1C5: “log tautomerization constant” 0.86.
COc1ccccc1-c1n[nH]c2nc(NC3CCN(C(=O)Cc4ccc(F)cc4F)CC3)ncc12 has a relative abundance of 1.1 (bead binding, competition bead pull-down, refers to: LINJ.36.6760; Leishmania donovani extract; 10 µM; baseline: vehicle).
